Assay results of several laboratories.
Numbers after ± are the reported error.
EGFR L861Q: Epidermal growth factor receptor (EGFR, Homo sapiens, UniProt P00533, L861Q)
EGFR: Epidermal growth factor receptor (EGFR, Homo sapiens, UniProt P00533)

Compound	target	assay	conditions	scale	remaining activity
COc1cc(N2CCN(C)CC2)ccc1Nc1nc(N)n(C(=S)NCc2c(Cl)cccc2Cl)n1	EGFR L861Q	enzyme activity	10 µM	baseline: control	0.4%
C=CC(=O)N1CCC([C@@H]2CCNc3c(C(N)=O)c(-c4ccc(Oc5ccccc5)cc4)nn32)CC1	EGFR	kinase activity, inhibitor, HotSpot radiometric	100 nM, with: ATP 10 µM		65.5 ± 0.9%
Cc1cc(Nc2cc(N3CCN(C)CC3)nc(Sc3ccc(NC(=O)C4CC4)cc3)n2)[nH]n1	EGFR (Homo sapiens, UniProt P00533, L858R/T790M)	kinase activity	0.03 µM, T790M/L858R	baseline: control	95%
c1cnc2ccc(Nc3nc(NC4CC4)c4nc[nH]c4n3)cc2c1	EGFR	kinase activity, inhibitor, SelectScreen kinase profiling	1 µM	baseline: control	108%
CCCOc1ccc(OC)c(F)c1C(=O)c1ccc(C(=O)N[C@@H]2CNC[C@H]2NC(=O)c2ccc3[nH]ncc3c2)cc1	EGFR L861Q	enzyme activity	10 µM		63%
O=C(NC1CCC1)c1ccc2nc(-c3cccc(NS(=O)(=O)NCCN4CCCCC4)c3)cn2c1	EGFR (Homo sapiens, UniProt P00533, T790M)	enzyme activity	10 µM		100%
Cc1[nH]c(/C=C2\C(=O)Nc3ccc(F)cc32)c(C)c1C(=O)N[C@H]1CCN(C(=O)N(C)C)C1	EGFR	kinase activity	0.1 µM	baseline: control	114%
COc1cc(N2CCN(C)CC2)ccc1Nc1nc(N)n(C(=O)NCc2c(Cl)cccc2Cl)n1	EGFR	enzyme activity	10 µM	baseline: control	24%
COc1cc(-c2cncc3c2CN(C)Cc2cc(N4CCNCC4)ccc2-3)cc(OC)c1OC	EGFR L861Q	kinase activity	1 µM, with: ATP 10 µM	baseline: DMSO control	48%
COc1ccc(F)cc1C(=O)NCc1ccc(-c2nn([C@@H](C)C(F)(F)F)c(N)c2C(N)=O)cc1	EGFR	kinase activity, inhibitor, HotSpot radiometric	100 nM, with: ATP 10 µM		106 ± 1.6%
COc1cc(N2CCN(C)CC2)ccc1Nc1nc(N)n(C(=O)NCc2ccccc2S(=O)(=O)C(C)C)n1	EGFR (Homo sapiens, UniProt P00533, G719S)	enzyme activity	10 µM	baseline: control	1.8%
C=CC(=O)N1CCC[C@@H](n2nc(-c3ccc(Oc4ccccc4)cc3)c3c(N)ncnc32)C1	EGFR	kinase activity, inhibitor, HotSpot radiometric	100 nM, with: ATP 10 µM		13.6 ± 1.7%
CCOc1cc(N2CCN(C)CC2)ccc1Nc1nc(N)n(C(=O)NCc2ccccc2S(=O)(=O)C(C)C)n1	EGFR (Homo sapiens, UniProt P00533, del747-752/P753S)	enzyme activity	10 µM	baseline: control	6.3%
